Assay results from different studies.
Protocols differ between the studies behind these lines.
Cell line: OVCAR-3

Structure (SMILES) = CCCCN1CCN(c2ccc3nc(-c4ccc5nc(-c6cc(OC)ccc6OC)[nH]c5c4)[nH]c3c2)CC1; test = SRB; conditions = 10 µM, 48 h; quantity = growth percent; result = 116%
Structure (SMILES) = CCOC(=O)CSc1nc(-c2ccc(Cl)cc2)c2c(NC(=O)c3ccccc3)nnc-2[nH]1; test = SRB; conditions = 10 µM, NCI60 single-dose screen; how to read = reference: untreated; quantity = cell growth; result = 100%
Structure (SMILES) = CCCN1CCN(c2ccc3[nH]c(-c4ccc5[nH]c(-c6ccc(OCC)c(OCC)c6)nc5c4)nc3c2)CC1; test = SRB; conditions = 10 µM, 48 h; quantity = growth percent; result = -63.7%
Structure (SMILES) = O=C(Nc1nnc2n3c(nc(-c4ccc(Cl)cc4)c1-2)SCC3=O)c1ccccc1; test = SRB; conditions = 10 µM, NCI60 single-dose screen; how to read = reference: untreated; quantity = cell growth; result = 104%
Structure (SMILES) = Cn1cncc1C1=CN(c2ncnc3[nH]cnc23)CCS1; conditions = ovarian cancer; quantity = TGI; result = 120 µM
Structure (SMILES) = C=CCn1c(=O)c2cnc(Nc3ccc(N4CCN(C)CC4)cc3)nc2n1-c1ccc2c(n1)[C@@](O)(CC)CC2; test = flow cytometry; conditions = concentration not given, EdU-positive S phase; quantity = γH2AX-positive cells; result = 5.6%
Structure (SMILES) = CCn1cc(-c2cc(Cn3ccoc3=N)cc3c2CCN([C@@H](C)c2cc(OC)ccn2)C3=O)c(C(F)(F)F)n1; test = cell growth, inhibitor; conditions = 120 h; quantity = EC50; result = 2.27 µM
Structure (SMILES) = C#C[C@@]1(O)[C@@H](CO)O[C@@H](n2ccc3c(N)ncnc32)[C@@H]1O; test = SRB; conditions = NCI-60 screen; quantity = TGI; result = 12 µM
Structure (SMILES) = O=C1NC(=NCc2cccs2)S/C1=C\c1ccc2ncccc2c1; test = MTS; conditions = NCI60 panel; quantity = IC50; result = > 10 µM
Structure (SMILES) = COc1cnc2cccc(N3CCc4c(cc(Cn5ccnc5C)cc4-c4cn(C)nc4C(F)(F)F)C3=O)c2c1; test = cell growth, inhibitor; conditions = 120 h; quantity = EC50; result = 4.35 µM
Structure (SMILES) = O=C(Oc1coc(CSc2ncccn2)cc1=O)c1ccc([N+](=O)[O-])cc1; test = cell migration, Transwell; conditions = 30 µM, 7 to 8 h, with: apelin; quantity = inhibition; result = 40%
Structure (SMILES) = Cc1ccc(-c2cc(C(F)(F)F)nn2-c2ccc(S(N)(=O)=O)cc2)cc1; test = WST-1; conditions = up to 25 µM, 2 days; quantity = growth inhibition; result = no effect
Structure (SMILES) = CN1CCN(c2ccc3[nH]c(-c4ccc5[nH]c(-c6ccc(C(F)(F)F)cc6)nc5c4)nc3c2)CC1; test = SRB; conditions = 10 µM, 48 h; quantity = growth percent; result = -17.3%
Structure (SMILES) = Cc1n[nH]c2nc(-c3ccc(Cl)cc3)c3c(NC(=O)c4ccccc4)nnc-3n12; test = SRB; conditions = 10 µM, NCI60 single-dose screen; how to read = reference: untreated; quantity = cell growth; result = 117%
Structure (SMILES) = CCCN1CCN(c2ccc3[nH]c(-c4ccc5[nH]c(-c6ccc(C(F)(F)F)cc6)nc5c4)nc3c2)CC1; test = SRB; conditions = 10 µM, 48 h; quantity = growth percent; result = -96.9%
Structure (SMILES) = Cc1cc(-c2ccccc2)n(-c2nc(-c3ccc(Cl)cc3)c3c(NC(=O)c4ccccc4)nnc-3[nH]2)n1; test = SRB; conditions = 10 µM, NCI60 single-dose screen; how to read = reference: untreated; quantity = cell growth; result = 83.6%
Structure (SMILES) = CCCCN1CCN(c2ccc3[nH]c(-c4ccc5[nH]c(-c6cc(OC)c(OC)c(OC)c6)nc5c4)nc3c2)CC1; test = SRB; conditions = 10 µM, 48 h; quantity = growth percent; result = 67%
Structure (SMILES) = Cc1cc(C)n(-c2nc(-c3ccc(Cl)cc3)c3c(NC(=O)c4ccccc4)nnc-3[nH]2)n1; test = SRB; conditions = 10 µM, NCI60 single-dose screen; how to read = reference: untreated; quantity = cell growth; result = 119%
Structure (SMILES) = CCCN1CCN(c2ccc3nc(-c4ccc5nc(-c6cc(OC)ccc6OC)[nH]c5c4)[nH]c3c2)CC1; test = SRB; conditions = 10 µM, 48 h; quantity = growth percent; result = 122%
Structure (SMILES) = C#C[C@@]1(O)[C@@H](CO)O[C@@H](n2cc(F)c3c(N)ncnc32)[C@@H]1O; test = SRB; conditions = NCI-60 screen; quantity = TGI; result = > 100 µM

For quick reference, copied from above:
Structure (SMILES) = CCOC(=O)CSc1nc(-c2ccc(Cl)cc2)c2c(NC(=O)c3ccccc3)nnc-2[nH]1; test = SRB; conditions = 10 µM, NCI60 single-dose screen; how to read = reference: untreated; quantity = cell growth; result = 100%
Structure (SMILES) = CCCN1CCN(c2ccc3[nH]c(-c4ccc5[nH]c(-c6ccc(C(F)(F)F)cc6)nc5c4)nc3c2)CC1; test = SRB; conditions = 10 µM, 48 h; quantity = growth percent; result = -96.9%
Structure (SMILES) = CCCCN1CCN(c2ccc3nc(-c4ccc5nc(-c6cc(OC)ccc6OC)[nH]c5c4)[nH]c3c2)CC1; test = SRB; conditions = 10 µM, 48 h; quantity = growth percent; result = 116%
